Assay results from different studies.
Numbered parts are unrelated; each lists some results of a single study.
UniProt O14920, sequence (whole entry, looked up): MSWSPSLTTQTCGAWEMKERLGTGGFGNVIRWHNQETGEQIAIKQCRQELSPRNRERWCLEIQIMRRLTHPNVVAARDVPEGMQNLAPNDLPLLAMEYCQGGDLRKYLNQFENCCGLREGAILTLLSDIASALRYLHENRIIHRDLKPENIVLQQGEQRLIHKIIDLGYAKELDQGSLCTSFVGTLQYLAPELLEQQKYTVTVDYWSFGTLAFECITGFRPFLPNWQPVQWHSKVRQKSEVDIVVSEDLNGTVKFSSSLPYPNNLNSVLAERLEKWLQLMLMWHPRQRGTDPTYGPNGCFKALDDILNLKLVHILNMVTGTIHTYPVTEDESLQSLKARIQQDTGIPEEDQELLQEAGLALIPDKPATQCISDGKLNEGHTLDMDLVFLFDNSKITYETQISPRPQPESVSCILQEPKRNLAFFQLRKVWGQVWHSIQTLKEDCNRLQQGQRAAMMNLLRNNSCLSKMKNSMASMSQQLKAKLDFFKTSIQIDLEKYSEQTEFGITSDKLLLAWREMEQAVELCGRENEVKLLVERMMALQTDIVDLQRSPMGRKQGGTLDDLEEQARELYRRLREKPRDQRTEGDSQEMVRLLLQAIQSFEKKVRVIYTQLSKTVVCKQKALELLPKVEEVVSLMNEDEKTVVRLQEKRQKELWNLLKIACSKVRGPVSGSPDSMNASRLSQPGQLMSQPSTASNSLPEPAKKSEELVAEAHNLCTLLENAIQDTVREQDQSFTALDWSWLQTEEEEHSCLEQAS
UniProt Q9UM73, sequence (whole entry, unmodified, looked up): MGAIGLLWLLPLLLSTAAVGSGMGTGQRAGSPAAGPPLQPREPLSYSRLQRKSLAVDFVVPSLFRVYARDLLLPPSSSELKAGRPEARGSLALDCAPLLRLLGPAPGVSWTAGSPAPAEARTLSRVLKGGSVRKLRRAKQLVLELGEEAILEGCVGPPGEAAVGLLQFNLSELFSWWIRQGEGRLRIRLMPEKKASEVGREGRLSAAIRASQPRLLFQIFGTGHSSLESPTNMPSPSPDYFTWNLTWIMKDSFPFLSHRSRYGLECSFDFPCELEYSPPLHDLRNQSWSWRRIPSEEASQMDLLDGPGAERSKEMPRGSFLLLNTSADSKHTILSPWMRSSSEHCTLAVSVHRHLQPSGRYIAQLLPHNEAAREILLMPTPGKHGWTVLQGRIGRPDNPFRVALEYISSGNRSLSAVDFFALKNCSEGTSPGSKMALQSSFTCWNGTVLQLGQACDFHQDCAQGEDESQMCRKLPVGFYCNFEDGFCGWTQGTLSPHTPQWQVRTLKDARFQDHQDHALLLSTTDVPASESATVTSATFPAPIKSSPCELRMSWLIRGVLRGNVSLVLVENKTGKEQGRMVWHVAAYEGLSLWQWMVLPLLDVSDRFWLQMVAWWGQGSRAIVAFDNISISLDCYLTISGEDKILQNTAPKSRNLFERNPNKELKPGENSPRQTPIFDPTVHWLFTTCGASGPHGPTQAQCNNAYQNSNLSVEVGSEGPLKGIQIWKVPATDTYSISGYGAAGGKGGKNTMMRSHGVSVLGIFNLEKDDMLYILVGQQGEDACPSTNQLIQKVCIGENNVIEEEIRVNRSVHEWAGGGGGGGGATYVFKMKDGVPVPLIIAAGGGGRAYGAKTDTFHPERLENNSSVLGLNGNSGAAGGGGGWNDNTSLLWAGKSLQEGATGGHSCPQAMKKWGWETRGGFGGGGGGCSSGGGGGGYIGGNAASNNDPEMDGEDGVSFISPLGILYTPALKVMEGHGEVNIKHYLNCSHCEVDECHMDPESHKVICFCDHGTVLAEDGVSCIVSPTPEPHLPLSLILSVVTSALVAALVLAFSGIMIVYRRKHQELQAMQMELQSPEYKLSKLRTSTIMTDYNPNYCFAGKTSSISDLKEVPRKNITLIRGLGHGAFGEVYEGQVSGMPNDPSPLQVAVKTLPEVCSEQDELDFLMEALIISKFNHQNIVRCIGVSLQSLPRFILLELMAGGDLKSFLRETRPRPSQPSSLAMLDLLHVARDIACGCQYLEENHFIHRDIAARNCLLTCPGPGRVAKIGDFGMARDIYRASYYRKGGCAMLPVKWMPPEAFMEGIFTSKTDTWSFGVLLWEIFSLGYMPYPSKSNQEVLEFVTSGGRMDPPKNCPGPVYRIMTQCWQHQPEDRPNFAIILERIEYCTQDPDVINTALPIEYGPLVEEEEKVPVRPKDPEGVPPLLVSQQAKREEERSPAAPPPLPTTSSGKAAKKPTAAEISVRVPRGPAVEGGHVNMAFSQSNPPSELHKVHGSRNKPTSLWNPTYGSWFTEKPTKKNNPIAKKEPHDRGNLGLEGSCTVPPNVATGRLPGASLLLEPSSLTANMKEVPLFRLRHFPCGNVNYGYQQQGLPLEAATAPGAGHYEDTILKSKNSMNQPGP
UniProt P53355, sequence (whole entry, looked up): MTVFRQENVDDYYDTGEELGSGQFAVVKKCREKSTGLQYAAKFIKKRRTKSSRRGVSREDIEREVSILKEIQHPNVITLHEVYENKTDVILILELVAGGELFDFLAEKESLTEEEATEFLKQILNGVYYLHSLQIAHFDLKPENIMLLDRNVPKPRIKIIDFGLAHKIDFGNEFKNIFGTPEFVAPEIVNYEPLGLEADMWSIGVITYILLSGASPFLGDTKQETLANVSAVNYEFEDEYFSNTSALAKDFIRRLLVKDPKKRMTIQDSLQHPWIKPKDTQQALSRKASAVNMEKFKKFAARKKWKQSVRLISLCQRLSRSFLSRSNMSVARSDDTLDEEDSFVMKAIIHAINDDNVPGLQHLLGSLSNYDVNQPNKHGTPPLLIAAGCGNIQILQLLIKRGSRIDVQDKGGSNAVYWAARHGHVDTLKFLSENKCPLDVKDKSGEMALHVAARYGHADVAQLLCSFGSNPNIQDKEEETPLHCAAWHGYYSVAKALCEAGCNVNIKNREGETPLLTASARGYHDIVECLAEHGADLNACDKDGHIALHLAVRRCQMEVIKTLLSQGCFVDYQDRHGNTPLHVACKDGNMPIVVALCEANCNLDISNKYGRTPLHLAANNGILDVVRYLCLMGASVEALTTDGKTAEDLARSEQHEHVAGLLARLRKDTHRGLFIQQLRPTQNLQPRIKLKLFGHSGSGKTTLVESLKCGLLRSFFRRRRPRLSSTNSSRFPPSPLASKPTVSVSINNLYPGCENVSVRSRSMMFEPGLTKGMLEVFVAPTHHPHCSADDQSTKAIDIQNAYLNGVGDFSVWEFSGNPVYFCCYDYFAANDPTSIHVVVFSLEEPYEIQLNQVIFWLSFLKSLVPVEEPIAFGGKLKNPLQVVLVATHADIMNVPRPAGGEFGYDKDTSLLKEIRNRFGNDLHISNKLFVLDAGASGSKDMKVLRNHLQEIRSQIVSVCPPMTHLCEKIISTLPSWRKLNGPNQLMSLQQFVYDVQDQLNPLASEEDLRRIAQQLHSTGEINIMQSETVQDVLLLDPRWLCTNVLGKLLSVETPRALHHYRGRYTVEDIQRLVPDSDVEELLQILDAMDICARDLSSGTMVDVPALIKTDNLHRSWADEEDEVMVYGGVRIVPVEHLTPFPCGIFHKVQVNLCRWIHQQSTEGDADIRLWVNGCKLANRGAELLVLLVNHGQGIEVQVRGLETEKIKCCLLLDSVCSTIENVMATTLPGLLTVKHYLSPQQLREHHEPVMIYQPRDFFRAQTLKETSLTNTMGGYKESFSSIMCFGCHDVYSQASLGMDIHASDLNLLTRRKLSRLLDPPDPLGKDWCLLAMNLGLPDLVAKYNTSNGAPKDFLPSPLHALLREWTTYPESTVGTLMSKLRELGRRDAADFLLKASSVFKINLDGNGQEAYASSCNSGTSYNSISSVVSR
UniProt P11802, sequence (whole entry, looked up): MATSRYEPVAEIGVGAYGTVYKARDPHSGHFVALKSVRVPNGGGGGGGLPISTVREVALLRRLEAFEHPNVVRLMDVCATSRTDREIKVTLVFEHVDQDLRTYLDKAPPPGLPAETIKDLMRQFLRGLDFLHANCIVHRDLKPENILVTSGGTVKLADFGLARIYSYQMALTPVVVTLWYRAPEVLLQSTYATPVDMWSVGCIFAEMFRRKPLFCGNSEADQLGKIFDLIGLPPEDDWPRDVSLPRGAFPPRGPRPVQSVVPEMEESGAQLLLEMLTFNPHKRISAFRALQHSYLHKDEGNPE
UniProt O95747, sequence (whole entry, looked up): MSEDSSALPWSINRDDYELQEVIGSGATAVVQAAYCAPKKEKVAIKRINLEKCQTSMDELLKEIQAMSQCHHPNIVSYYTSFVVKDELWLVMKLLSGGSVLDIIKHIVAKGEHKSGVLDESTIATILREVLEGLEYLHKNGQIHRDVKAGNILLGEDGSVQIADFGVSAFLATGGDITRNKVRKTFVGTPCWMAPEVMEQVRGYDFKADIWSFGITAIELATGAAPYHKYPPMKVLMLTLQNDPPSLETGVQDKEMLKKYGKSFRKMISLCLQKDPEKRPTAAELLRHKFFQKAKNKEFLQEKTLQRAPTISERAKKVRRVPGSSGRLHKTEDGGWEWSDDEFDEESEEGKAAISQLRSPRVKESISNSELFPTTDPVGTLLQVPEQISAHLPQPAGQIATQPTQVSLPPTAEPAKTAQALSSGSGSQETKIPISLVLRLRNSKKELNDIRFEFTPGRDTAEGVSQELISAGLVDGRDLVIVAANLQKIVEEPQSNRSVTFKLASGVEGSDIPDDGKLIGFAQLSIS
UniProt Q8IU85, sequence (whole entry, looked up): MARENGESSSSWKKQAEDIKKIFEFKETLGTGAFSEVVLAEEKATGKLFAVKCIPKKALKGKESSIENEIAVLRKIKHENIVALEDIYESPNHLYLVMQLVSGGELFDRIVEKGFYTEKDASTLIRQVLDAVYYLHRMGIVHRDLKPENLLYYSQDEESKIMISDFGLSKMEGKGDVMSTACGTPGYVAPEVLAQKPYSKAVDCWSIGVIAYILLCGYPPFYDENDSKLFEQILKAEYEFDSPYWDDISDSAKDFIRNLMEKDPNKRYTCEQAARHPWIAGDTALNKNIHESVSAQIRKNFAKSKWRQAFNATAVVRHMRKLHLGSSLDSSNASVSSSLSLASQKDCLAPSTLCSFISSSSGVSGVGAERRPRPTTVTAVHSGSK

Set 1
Structure (SMILES): C[C@H](NC(=O)c1cnc2n1[C@](C)(Cc1ccc(C#N)cc1)C(=O)N2c1cc(Cl)c(F)c(Cl)c1)C(=O)NC1(c2ccccn2)CC1
Method: competition with immobilised ligand
Concentration: 1 µM
Endpoint: remaining binding
ULK1 (Homo sapiens, UniProt O75385); cell-free assay: 100%
PRKCQ (Homo sapiens, UniProt Q04759); cell-free assay: 100%
Tyrosine-protein kinase ABL1, phosphorylated (ABL1, Homo sapiens, UniProt P00519, H396P); cell-free assay: 91%
Tyrosine-protein kinase ABL1, non-phosphorylated (ABL1, Homo sapiens, UniProt P00519, F317I); binding: 100%
LRRK2 (Homo sapiens, UniProt Q5S007); cell-free assay: 100%
FLT3 (Homo sapiens, UniProt P36888, F691L/ITD); cell-free assay: 100%
WNK1 (Homo sapiens, UniProt Q9H4A3); cell-free assay: 100%
EPHA4 (Homo sapiens, UniProt P54764); cell-free assay: 100%
MAP3K20 (Homo sapiens, UniProt Q9NYL2); cell-free assay: 100%
ACVRL1 (Homo sapiens, UniProt P37023); cell-free assay: 100%
PIK3C2G (Homo sapiens, UniProt O75747); cell-free assay: 100%
COQ8A (Homo sapiens, UniProt Q8NI60); cell-free assay: 100%
MAK (Homo sapiens, UniProt P20794); cell-free assay: 100%
IKBKB (Homo sapiens, UniProt O14920); cell-free assay: 90%
ALK (Homo sapiens, UniProt Q9UM73, L1196M); cell-free assay: 100%
PRKCE (Homo sapiens, UniProt Q02156); cell-free assay: 100%
CAMK1D (Homo sapiens, UniProt Q8IU85); cell-free assay: 99%
SLK (Homo sapiens, UniProt Q9H2G2); cell-free assay: 100%
PLK4 (Homo sapiens, UniProt O00444); cell-free assay: 88%
MYLK3 (Homo sapiens, UniProt Q32MK0); cell-free assay: 100%

Set 2
SMILES: O=C1CCC(N2Cc3cc(C4CCN(Cc5ccccc5)CC4)ccc3C2=O)C(=O)N1 (stereo not shown)
Sample: plasma
Endpoint: MRT(0-t)
Sprague Dawley rat, male; oral, 3.0 mg/kg: 2.93 h
male CD-1 mouse; intravenous, 1 mg/kg: 2.01 h
male CD-1 mouse; oral, 3 mg/kg: 1.7 h

Set 3
Host: human
Sample: microsomes or S9
Concentration: 2 µM
Time: 0.5 h
Endpoint: remaining compound
CC(=O)c1c(C)n(S(=O)(=O)c2ccc(C)cc2)c2ccc(NS(=O)(=O)c3ccc(C)cc3)cc12: 9.91%
Ic1ccc(-n2ccnc2)cc1: > 99%
COc1cc(NC(=O)NC2CCN(c3nc4ccccc4n(CC(C)C)c3=O)CC2)cc(OC)c1: 79.5%
CCCCN(C)C(=O)CSc1nnc2c3cc(-c4cc(C)ccc4C)nn3ccn12: 72.5%
Cc1ccc(S(=O)(=O)N2CCCC(C(=O)Nc3ccc4c(c3)OCCO4)C2)cc1 (stereo not shown): 65%
NC(=O)Cc1csc(NC(=O)CCNC2=NS(=O)(=O)c3ccccc32)n1: 83%
O=C(Cn1cnc(C2CC2)cc1=O)N1CCC(N2CC(=O)N(c3ccccc3)C2=O)CC1: 91.2%
Cn1nnc(-c2ccc(OCC(=O)Nc3ccc4[nH]ccc4c3)cc2)n1: 45.9%
CC1CN(C)C(c2ccccc2)C(C)C12NC(=O)N=C2O (stereo not shown): 60.3%

Set 4
SMILES: O=c1c(-c2ccc(F)cc2)c(-c2ccncc2)[nH]n1-c1ccc(Cl)cc1
Observed: enzyme activity
Action: inhibitor
Concentration: 0.5 µM
Relative to: control
Endpoint: remaining activity
Cyclin-dependent kinase 5, with p25 (CDK5, Homo sapiens, UniProt Q00535): 76.3%
DAPK1 (Homo sapiens, UniProt P53355): 84.5%
PRKACA (Homo sapiens, UniProt P17612): 90.7%
IKBKE (Homo sapiens, UniProt Q14164): 98.3%
MAPK9 (Homo sapiens, UniProt P45984): 6.07%
TGFBR2 (Homo sapiens, UniProt P37173): 97.7%
Tyrosine-protein kinase Lyn, isoform B (LYN, Homo sapiens, UniProt P07948): 99.7%
IKBKB (Homo sapiens, UniProt O14920): 102%
GRK3 (Homo sapiens, UniProt P35626): 95%
Cyclin-dependent kinase 4, with cyclin D1 (CDK4, Homo sapiens, UniProt P11802): 102%
MAP3K3 (Homo sapiens, UniProt Q99759): 96.2%
CAMK2D (Homo sapiens, UniProt Q13557): 95.6%
OXSR1 (Homo sapiens, UniProt O95747): 83.3%
STK39 (Homo sapiens, UniProt Q9UEW8): 128%
DAPK2 (Homo sapiens, UniProt Q9UIK4): 104%
CHEK2 (Homo sapiens, UniProt O96017): 91.4%
STK11 (Homo sapiens, UniProt Q15831): 98.8%
CAMKK2 (Homo sapiens, UniProt Q96RR4): 83%
STK10 (Homo sapiens, UniProt O94804): 81.9%
Protein kinase C beta type, isoform beta-I (PRKCB, Homo sapiens, UniProt P05771): 84.7%
cGMP-dependent protein kinase 1, isoform beta (PRKG1, Homo sapiens, UniProt Q13976): 106%
TGFBR1 (Homo sapiens, UniProt P36897): 101%
PRKCA (Homo sapiens, UniProt P17252): 100%

For quick reference, copied from above (set 4):
IKBKB (Homo sapiens, UniProt O14920): 102%
Tyrosine-protein kinase Lyn, isoform B (LYN, Homo sapiens, UniProt P07948): 99.7%
CAMKK2 (Homo sapiens, UniProt Q96RR4): 83%
Cyclin-dependent kinase 4, with cyclin D1 (CDK4, Homo sapiens, UniProt P11802): 102%
MAP3K3 (Homo sapiens, UniProt Q99759): 96.2%
Cyclin-dependent kinase 5, with p25 (CDK5, Homo sapiens, UniProt Q00535): 76.3%
STK10 (Homo sapiens, UniProt O94804): 81.9%
